Assay results from different studies.
Compare with care: the assays were run in different laboratories.
Organism: Human immunodeficiency virus 1

| Compound | test | system | conditions | IC50 [nM] |
| --- | --- | --- | --- | --- |
| Nc1nc(F)nc2c1ncn2[C@H]1C[C@H](O)[C@](CO)(CF)O1 | cytopathic effect, MTT | MT4 | – | 24.8 |
| O=c1c(O)c(-c2ccc(O)c(O)c2)oc2cc(O)cc(O)c12 | viral replication, inhibitor | TZM-bl, NL43 | 48 h | 2490 |
| Cc1ccnc2c1NC(=O)c1cccnc1N2C1CC1 | viral replication | human PBMC | 6 days | 60 |
| C#C[C@]1(CO)O[C@@H](n2cnc3c(O)ncnc32)C[C@@H]1O | cytopathic effect, MTT | MT4 | – | 276 |
| Cc1ccnc2c1NC(=O)c1cccnc1N2C1CC1 | viral replication, inhibitor | HOS | – | 36 |
| C[C@]1(CO)O[C@@H](n2cnc3c(N)nc(N)nc32)C[C@@H]1O | cytopathic effect, MTT | MT4 | – | 247 |
| NC(=S)n1nc(-c2ccc([N+](=O)[O-])cc2)c(/N=N/c2cccc(Cl)c2)c1O | viral replication, ELISA | CEM-T4, NL43 | 9 days | 100 to 300 |
| OCCn1c(Cl)nc2cc(Br)c(Br)cc21 | viral replication | TZM-bl | – | 3860 |
| C=C(C)[C@]12C[C@@H](COC(=O)c3ccccc3)[C@@]34OC5(O[C@@H]1[C@@H]3[C@@H]1O[C@]1(COC(=O)c1ccccc1)[C@@H](O)[C@@]1(O)[C@H]4[C@H]([C@H](C)[C@@H]1OC(=O)c1ccccc1)[C@H](C)CCCCCC[C@H]5OC(=O)c1ccccc1)O2 | viral replication, inhibitor | MT4, NL43 | 72 h | ≥ 1 |
| CC1=C[C@]23C(=O)[C@@H](C=C(CO)[C@@H](O)[C@]2(O)[C@H]1OC(=O)c1ccc2ccccc2c1)[C@H]1[C@@H](C[C@H]3C)C1(C)C | viral replication | MT4, NL43 | – | 1.3 |
| CNc1nc(N)nc2c1ncn2[C@H]1C[C@H](O)[C@](CO)(CF)O1 | cytopathic effect, MTT | MT4 | – | 165 |
| N=C(N)NC[C@H]1Cc2ccccc2[C@@H]1NC(=O)C(=O)Nc1ccc(Cl)c(F)c1 | viral replication, inhibitor | Cf2Th-CD4/CCR5 | – | 3100 |
| CC1=C[C@]23C(=O)[C@@H](C=C(CO)[C@@H](O)[C@]2(O)[C@H]1O)[C@H]1[C@@H](C[C@H]3C)C1(C)C | viral replication | MT4, NL43 | – | > 1000 |
| O=c1c(O)c(-c2ccc(O)cc2)oc2cc(O)cc(O)c12 | viral replication, inhibitor | TZM-bl, NL43 | 48 h | 2450 |
| N#C[C@]1(CO)O[C@@H](n2cnc3c(N)nc(N)nc32)C[C@@H]1O | cytopathic effect, MTT | MT4 | – | 0.2 |
| Cc1ccnc2c1NC(=O)c1cccnc1N2C1CC1 | viral replication | TZM-bl | – | 5 |

Excerpt of the above:
| Compound | test | system | conditions | IC50 [nM] |
| --- | --- | --- | --- | --- |
| N#C[C@]1(CO)O[C@@H](n2cnc3c(N)nc(N)nc32)C[C@@H]1O | cytopathic effect, MTT | MT4 | – | 0.2 |
| Nc1nc(F)nc2c1ncn2[C@H]1C[C@H](O)[C@](CO)(CF)O1 | cytopathic effect, MTT | MT4 | – | 24.8 |
